Published values pooled from the literature.
Compare with care: the assays were run in different laboratories. ± marks the error that the study gave.
Cell line: HEK-293T

For `Cc1cc(C)nc(SCC(=O)Nc2ncc(Cc3cccc4ccccc34)s2)n1`, the inhibition was 18.8 ± 1.6% (cell viability, MTS; 10 µM).
`COc1cc(NC(=O)c2cnn(-c3ccc([N+](=O)[O-])cc3)c2C(F)(F)F)c(OC)cc1Cl` gave an inhibition of 20.1 ± 1.65% (cell viability, MTS; 50 µM, 72 h).
`Cc1cc(C)nc(SCC(=O)Nc2ncc(Cc3cccc(OCc4cn(Cc5ccc(C#N)cc5)nn4)c3)s2)n1` has an inhibition of 70.9 ± 1.7% (cell viability, MTS; 10 µM).
For `CSc1ccc(NC(=O)c2cnn(-c3ccc([N+](=O)[O-])cc3)c2C(F)(F)F)cc1`, the inhibition was 13.1 ± 1.08% (cell viability, MTS; 50 µM, 72 h).
With `CCCCCCCCCCCCNC(=S)NCCCC[C@H](NS(C)(=O)=O)C(=O)N[C@H](C)C(=O)N[C@@H](CCCNC(=N)N)C(N)=O` the EC50 was 4.88 to 18.3 µM (cell growth or viability, MTT; 72 h).
For `CCCCCCCCCCCCSCC(COCC(O)C[N+](C)(CCO)CCO)SCCCCCCCCCCCC` (centres unmarked), the IC50 was 165 µM (cell growth or viability, MTT; 24 h).
The EC50 of `Cc1cc(C)nc(SCC(=O)Nc2ncc(Cc3cccc4ccccc34)s2)n1` is reported as 84.5 to 109 µM (cell growth or viability, MTT; 72 h).
`C=CCOCO[C@H](C(=O)NC[C@@H]1C[C@@H](OC)C(C)(C)[C@@H](C[C@@H](COC)OC)O1)[C@@]1(OC)CC(=C)[C@@H](C)[C@@H](C)O1` has an IC50 of 3.49 ± 0.084 µM (cell viability, sulforhodamine B; 48 h, 37 °C, added: H2O2 100 µM).
